Assay results of several laboratories.
Numbered parts are unrelated; each lists some results of a single study.

Study 1
Target: Sal-like protein 4, full length isoform A (SALL4, Homo sapiens, UniProt Q9UJQ4, residues 1-1053)
UniProt Q9UJQ4, sequence (whole entry, looked up): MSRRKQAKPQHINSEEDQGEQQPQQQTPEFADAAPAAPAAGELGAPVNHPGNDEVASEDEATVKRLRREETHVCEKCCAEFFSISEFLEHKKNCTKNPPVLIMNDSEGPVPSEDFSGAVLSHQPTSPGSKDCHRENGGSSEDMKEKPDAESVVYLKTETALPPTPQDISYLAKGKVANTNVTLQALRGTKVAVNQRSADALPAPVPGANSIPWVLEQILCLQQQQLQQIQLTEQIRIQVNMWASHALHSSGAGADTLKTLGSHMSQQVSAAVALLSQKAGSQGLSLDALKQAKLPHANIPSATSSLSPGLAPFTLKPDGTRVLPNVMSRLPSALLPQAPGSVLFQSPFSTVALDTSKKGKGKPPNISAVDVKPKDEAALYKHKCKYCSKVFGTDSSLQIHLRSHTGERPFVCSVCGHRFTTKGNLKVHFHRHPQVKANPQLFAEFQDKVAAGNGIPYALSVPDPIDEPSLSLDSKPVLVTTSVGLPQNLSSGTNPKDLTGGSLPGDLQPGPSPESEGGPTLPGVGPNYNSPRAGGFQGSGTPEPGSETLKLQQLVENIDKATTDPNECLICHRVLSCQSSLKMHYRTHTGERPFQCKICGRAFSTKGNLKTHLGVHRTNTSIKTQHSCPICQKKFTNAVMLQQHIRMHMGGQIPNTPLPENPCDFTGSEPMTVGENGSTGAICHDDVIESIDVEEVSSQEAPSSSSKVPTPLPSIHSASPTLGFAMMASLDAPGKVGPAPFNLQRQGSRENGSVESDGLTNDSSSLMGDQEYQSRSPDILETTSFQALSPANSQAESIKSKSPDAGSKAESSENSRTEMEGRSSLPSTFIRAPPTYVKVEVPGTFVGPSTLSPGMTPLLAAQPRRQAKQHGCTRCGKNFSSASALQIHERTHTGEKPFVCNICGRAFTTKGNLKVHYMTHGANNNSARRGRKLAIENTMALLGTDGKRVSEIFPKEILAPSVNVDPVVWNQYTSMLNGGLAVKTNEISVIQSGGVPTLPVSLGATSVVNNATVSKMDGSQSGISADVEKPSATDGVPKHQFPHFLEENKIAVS
Method: universal PBM
Form: double-stranded DNA, one strand shown
Sample: in vitro
Concentration: 600 nM
Setting: 8-mer, flanks averaged, mean of replicates
Reading: higher = stronger binding
Measurement: E-score
CCAGCTGG: -0.337
ATTATACC: 0.263
ATTCTACA: 0.15
GCAGACCC: -0.292
ATAATGGC: 0.101
GCCAACTA: -0.0455
AGTGGGCA: -0.0668

Study 2
Target: Phosphate system positive regulatory protein PHO4, full length, GST-tagged (PHO4, Saccharomyces cerevisiae, UniProt P07270, residues 1-312)
Method: competition protein-binding microarray
Form: double-stranded DNA, one strand shown
Sample: in vitro
Concentration: 2 µM
Setting: whole 60-bp probe, lowest competitor level
Together with: Cbf1 competitor, 0.05 µM
Reading: higher = stronger binding
Measurement: fluorescence intensity
Target sequence (chain): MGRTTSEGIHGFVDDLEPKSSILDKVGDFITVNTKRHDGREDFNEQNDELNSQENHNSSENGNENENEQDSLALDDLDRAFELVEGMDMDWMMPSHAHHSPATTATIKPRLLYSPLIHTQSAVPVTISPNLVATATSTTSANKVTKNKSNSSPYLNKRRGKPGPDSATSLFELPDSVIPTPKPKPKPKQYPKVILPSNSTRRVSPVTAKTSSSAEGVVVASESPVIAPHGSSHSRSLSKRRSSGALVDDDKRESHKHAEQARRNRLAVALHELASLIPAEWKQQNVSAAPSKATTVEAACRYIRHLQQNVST
AAAGCGGTAATTTACCACGTGTTTTCACATATCTATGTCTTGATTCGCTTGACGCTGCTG: 16000 a.u.
ATGCCAATAGAGCCGCACATGTAATTACTGGTTGACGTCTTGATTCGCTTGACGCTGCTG: 10100 a.u.
CTAACGAAGGTTTGCTCGGTGGGTGACAAGCCAAGTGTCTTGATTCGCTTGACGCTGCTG: 3310 a.u.
AAAGCGGTAATTTGGAGCGTGGGTGCAGATATCTATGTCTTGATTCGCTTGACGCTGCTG: 8870 a.u.
AAAGCGGTAATTTGTCACGTAACTTCACATATCTATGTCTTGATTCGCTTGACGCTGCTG: 4460 a.u.
TCCAGAACTTTTAAGCGCGTGTTCCAGGCGTTGCCGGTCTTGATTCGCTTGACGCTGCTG: 9390 a.u.

Study 3
Target: Histone acetyltransferase KAT6A, both winged helices, GST fusion (KAT6A, Homo sapiens, UniProt Q92794, residues 1-181)
Method: protein binding microarray
Form: double-stranded DNA, one strand shown
Sample: in vitro
Concentration: not given
Setting: 8-mer, flanks averaged, mean of 2 arrays, mostly near background
Relative to: not given
Reading: higher = stronger binding
Measurement: E-score
Target sequence (chain): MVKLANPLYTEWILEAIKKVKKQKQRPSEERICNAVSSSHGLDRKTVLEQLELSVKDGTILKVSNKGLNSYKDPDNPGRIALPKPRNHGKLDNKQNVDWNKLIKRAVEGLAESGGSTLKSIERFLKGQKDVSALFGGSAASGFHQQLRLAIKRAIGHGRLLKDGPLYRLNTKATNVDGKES
CGCCAGGC: 0.177
CCTGTCAG: -0.0542
AACCAGAT: -0.177
CGTGGGAG: 0.00771
AGTCACCG: 0.18

Single results of other studies
PhoQ, residues 284 288 289 292 302 303 SQSLSM — fold induction (PhoP, residues 12 14 15 18 19 LWHCS (Escherichia coli, UniProt P23836); Sort-seq, refers to: YFP reporter; E. coli; PhoQ-PhoP variant library, together with: 10 µM Mg2+; relative to: high Mg2+ state, higher = stronger signaling): 10.1

For quick reference, copied from above (study 1):
ATAATGGC: 0.101
GCCAACTA: -0.0455
